Published values pooled from the literature.
Protocols differ between the studies behind these lines.

SMILES	target or system	assay	test system	conditions	quantity	result
CCCN(O)N=Nc1ccc(S(=O)(=O)Nc2onc(C)c2C)cc1	–	DPPH scavenging, absorbance	–	300 µg/mL	inhibition	33.4%
C=CC(=O)N1CCC(COCC(=O)N2CCN(c3nc(-c4cnc(N)nc4C(F)F)nc(N4CCOC[C@@H]4C)n3)CC2)CC1	HIPK4 (Homo sapiens, UniProt Q8NE63)	binding, competition with immobilised ligand	–	1 µM	remaining binding	100%
CC(=NNC(=O)c1ccc(N)cc1)c1ccc(Nc2nnc(-c3ccc(Cl)cc3)c3ccccc23)cc1	HepG2	cell growth or viability, MTT	–	2.5 µM, 24 h	viability	20.8%
CNc1ncc2c(/C=C/C(=O)N3CCC(OC)CC3)nn(Cc3cccc(C(F)(F)F)c3)c2n1	MAP3K20 (Homo sapiens, UniProt Q9NYL2)	enzyme activity, inhibitor, radiometric	–	1 µM	remaining activity	102%
CCCCC(=O)Nc1ccc(-c2ccc3ncn(CCC)c(=O)c3c2)cn1	WNK1 (Homo sapiens, UniProt Q9H4A3)	binding, competition with immobilised ligand	–	0.5 µM	remaining binding	100%
Nc1ncnc2occ(-c3ccc(NC(=O)Nc4cc(C(F)(F)F)ccc4F)cc3)c12	PIK3CA (Homo sapiens, UniProt P42336, E542K)	cell-free assay, inhibitor	–	20 µM	remaining signal	46%
O=C(Nc1ccccc1)Nc1ccc(Oc2nnc(-c3ccc(Cl)cc3)c3ccccc23)cc1	HepG2	cell growth or viability, MTT	–	0.156 µM	cell death	81.3%
C1=C/COCc2cc(ccc2OCCN2CCCC2)Nc2nccc(n2)-c2cccc(c2)COC/1	PIK3CA (Homo sapiens, UniProt P42336, Q546K)	binding	–	0.1 µM	remaining binding	60%
CCc1oc2cc(S(=O)(=O)Nc3ccc(S(=O)(=O)Nc4nccs4)cc3)ccc2c1C(=O)c1cc(Br)c(O)c(Br)c1	PTPN1 (Homo sapiens, UniProt P18031)	thermal stability, DSF	–	–	ΔTm	> 5 °C
Cc1cccc(N(O)N=Nc2ccc(S(=O)(=O)Nc3cc(C)on3)cc2)c1	–	DPPH scavenging, absorbance	–	60 µg/mL	inhibition	30.2%
Cc1cc([C@@H](C)Nc2ccccc2C(=O)O)c2nc(N3CCC(F)(F)CC3)c(C#N)c(=O)n2c1	MAPK9 (Homo sapiens, UniProt P45984)	binding, competition with immobilised ligand	–	10 µM	remaining binding	100%
COc1cc(-c2cncc3c2CN(C)Cc2cc(N4CCNCC4)ccc2-3)cc(OC)c1OC	CSF1R (Homo sapiens, UniProt P07333, Y969C)	enzyme activity, inhibitor	–	1 µM	remaining activity	87%
O=C(NCCc1cccc2ccccc12)C1CCC1	MTNR1A (Homo sapiens, UniProt P48039)	β-arrestin recruitment, agonist	CHO-K1	90 min	Emax	20%
CC[C@H](C)[C@H](NC(=O)[C@H](CCC(N)=O)NC(=O)[C@@H](NC(=O)[C@H](CCSC)NC(=O)[C@H](CCCCN)NC(=O)[C@H](CO)NC(=O)[C@@H](NC(=O)[C@H](CCSC)NC(=O)[C@H](CC(C)C)NC(=O)[C@H](CC(N)=O)NC(=O)[C@@H](NC(=O)[C@@H](NC(=O)[C@H](CO)NC(=O)[C@H](CC(C)C)NC(=O)[C@H](C)NC(=O)[C@H](CCCNC(=N)N)NC(=O)[C@H](CCC(=O)O)NC(=O)[C@H](Cc1ccc(O)cc1)NC(=O)[C@H](Cc1ccccc1)NC(=O)[C@H](C)NC(=O)[C@H](CC(N)=O)NC(=O)[C@@H](N)CCCCN)[C@@H](C)CC)[C@@H](C)CC)[C@@H](C)O)C(C)C)C(=O)N[C@@H](CC(N)=O)C(=O)N[C@H](C(=O)O)C(C)C	MAPK3 (Homo sapiens, UniProt P27361)	enzyme activity, inhibitor, radiometric	–	10 µM	inhibition	0%
FC(F)(F)Oc1cccc(-c2cnc3ccc(-c4ccncc4)nn23)c1	FLT1 (Homo sapiens, UniProt P17948)	enzyme activity, inhibitor, radiometric	–	5 µM	activity vs control	29%

Repeated from above:
SMILES	target or system	assay	test system	conditions	quantity	result
CCCCC(=O)Nc1ccc(-c2ccc3ncn(CCC)c(=O)c3c2)cn1	WNK1 (Homo sapiens, UniProt Q9H4A3)	binding, competition with immobilised ligand	–	0.5 µM	remaining binding	100%
Nc1ncnc2occ(-c3ccc(NC(=O)Nc4cc(C(F)(F)F)ccc4F)cc3)c12	PIK3CA (Homo sapiens, UniProt P42336, E542K)	cell-free assay, inhibitor	–	20 µM	remaining signal	46%
